Assay results from different studies.
Parts stem from different laboratories: compare values within a part only.

Series 1
Target: Max-binding protein MNT, bHLH-zipper, MAX partner unstated (MNT, Homo sapiens, UniProt Q99583, residues 220-300)
Method: protein-binding microarray
Form: double-stranded DNA, one strand shown
Matrix: in vitro
Tested at: not given
Setting: k-mer, scored over probes, only values ≥0.25
Direction: higher = stronger binding
Construct (chain): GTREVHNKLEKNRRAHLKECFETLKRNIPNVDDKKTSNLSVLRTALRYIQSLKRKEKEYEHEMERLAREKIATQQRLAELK
| Oligonucleotide | E-score |
| --- | --- |
| AATCACGC | 0.351 |
| GATCCCCA | 0.26 |
| CCACACCC | 0.292 |
| CGTGTGAC | 0.279 |
| AAACACGT | 0.417 |
| GCACGAGC | 0.32 |
| ACCCACGT | 0.436 |
| AACCCACC | 0.271 |

Series 2
Target: Histone acetyltransferase KAT6A, both winged helices, GST fusion (KAT6A, Homo sapiens, UniProt Q92794, residues 1-181)
Method: protein binding microarray
Form: double-stranded DNA, one strand shown
Matrix: in vitro
Tested at: not given
Setting: 8-mer, flanks averaged, mean of 2 arrays, mostly near background
Reference: not given
Direction: higher = stronger binding
Construct (chain): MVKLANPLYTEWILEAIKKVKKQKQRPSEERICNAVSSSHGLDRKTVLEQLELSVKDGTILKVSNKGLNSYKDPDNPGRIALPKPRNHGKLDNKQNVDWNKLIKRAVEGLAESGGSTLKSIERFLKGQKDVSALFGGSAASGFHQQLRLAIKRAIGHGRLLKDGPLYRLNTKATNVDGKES
| Oligonucleotide | E-score |
| --- | --- |
| AACCAGGC | -0.0655 |
| ACAAGTAG | -0.258 |
| TAAGAGAA | -0.122 |
| AGGAAAGG | -0.192 |
| AGGTCCAG | -0.121 |
| AAAGGGCG | 0.0541 |
| ACCTCTGG | -0.278 |
| ACATTTGA | -0.0138 |
| ACGTTACC | 0.056 |
| TGATAAAA | 0.106 |
| CGTACCAG | -0.0841 |
| ATACACAC | 0.00357 |
| CTACCTGC | 0.086 |
| CAGGCCCC | -0.138 |

Series 3
Target: Sal-like protein 4, full length isoform A (SALL4, Homo sapiens, UniProt Q9UJQ4, residues 1-1053)
Chain of UniProt Q9UJQ4 (whole entry, looked up): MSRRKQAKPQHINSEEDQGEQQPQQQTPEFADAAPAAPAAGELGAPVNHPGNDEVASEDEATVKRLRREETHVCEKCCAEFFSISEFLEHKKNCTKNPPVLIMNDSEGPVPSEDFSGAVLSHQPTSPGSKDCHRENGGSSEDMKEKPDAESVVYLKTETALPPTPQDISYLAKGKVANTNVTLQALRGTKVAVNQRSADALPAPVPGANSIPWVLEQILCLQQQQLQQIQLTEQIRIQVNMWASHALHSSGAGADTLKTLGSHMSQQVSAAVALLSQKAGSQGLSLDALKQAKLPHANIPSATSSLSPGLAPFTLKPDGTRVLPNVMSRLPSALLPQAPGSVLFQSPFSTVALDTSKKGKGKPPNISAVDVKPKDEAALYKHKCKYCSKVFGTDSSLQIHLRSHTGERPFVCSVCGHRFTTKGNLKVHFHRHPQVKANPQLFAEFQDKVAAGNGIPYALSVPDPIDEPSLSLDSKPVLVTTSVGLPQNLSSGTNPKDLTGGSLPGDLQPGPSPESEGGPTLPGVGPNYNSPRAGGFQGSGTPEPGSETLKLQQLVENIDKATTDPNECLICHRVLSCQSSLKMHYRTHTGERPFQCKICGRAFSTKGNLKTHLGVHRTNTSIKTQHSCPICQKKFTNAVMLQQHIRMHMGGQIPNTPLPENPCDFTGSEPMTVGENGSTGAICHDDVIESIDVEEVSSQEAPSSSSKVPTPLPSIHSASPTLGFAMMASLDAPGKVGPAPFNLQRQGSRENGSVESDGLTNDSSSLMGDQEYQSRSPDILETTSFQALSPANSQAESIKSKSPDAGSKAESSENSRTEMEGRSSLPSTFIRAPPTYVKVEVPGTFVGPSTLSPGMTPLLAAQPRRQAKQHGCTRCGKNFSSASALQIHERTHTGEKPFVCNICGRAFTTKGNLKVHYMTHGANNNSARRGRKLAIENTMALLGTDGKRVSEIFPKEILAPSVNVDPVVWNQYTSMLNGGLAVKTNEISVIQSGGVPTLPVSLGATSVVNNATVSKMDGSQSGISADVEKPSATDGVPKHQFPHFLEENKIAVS
Method: universal PBM
Form: double-stranded DNA, one strand shown
Matrix: in vitro
Tested at: 600 nM
Setting: 8-mer, flanks averaged, mean of replicates
Direction: higher = stronger binding
| Oligonucleotide | E-score |
| --- | --- |
| CCTTCAAC | 0.00396 |
| AGGATACC | -0.127 |
| CCCATCTA | 0.0249 |
| TCAGGTCA | -0.071 |
| CCATAGAC | -0.0343 |
| CAATGCTA | 0.151 |
| GCTCACCC | -0.277 |
| CCCTCGCG | -0.291 |
| CCATGATC | -0.0489 |
| CTTTGTAC | 0.0886 |
| CACGTCCC | -0.3 |
| GACCGTTA | 0.119 |
| GAAAGAGC | -0.0793 |
| GAGGGTTA | 0.0323 |
| GATCTAAC | 0.0104 |
| GCAGAGAC | -0.238 |
| AAGAGAGA | 0.0178 |

Series 4
Target: Prothrombin, mature alpha-thrombin (F2, Homo sapiens, UniProt P00734)
Method: aptamer microarray, sandwich
Form: DNA with 2'F-ANA
Matrix: in vitro
Tested at: 200 nM
Setting: whole 15-mer aptamer, many near background
Together with: Cy3 exosite-II aptamer, 400 nM
Direction: higher = stronger binding
Oligonucleotide: GGTTGGTGTGGTTGG
| Modification | mean fluorescence intensity [a.u.] |
| --- | --- |
| 2'F-ANA at 4 6 7 8 9 11 14 15 | 84.2 |
| 2'F-ANA at 3 12 13 14 15 | 627 |
| 2'F-ANA at 2 3 5 9 13 14 | 50.6 |
| 2'F-ANA at 2 4 6 7 10 11 13 14 15 | 56.5 |
| 2'F-ANA at 2 3 4 8 9 13 14 | 259 |
| 2'F-ANA at 2 3 9 10 11 12 14 15 | 239 |

Other studies, line by line
| Molecule | target | assay | system | conditions | how to read | measurement | value |
| --- | --- | --- | --- | --- | --- | --- | --- |
| PhoQ, residues 284 288 289 292 302 303 GNNTDL | PhoP, residues 12 14 15 18 19 AQCLL (Escherichia coli, UniProt P23836) | Sort-seq, refers to: YFP reporter | E. coli | PhoQ-PhoP variant library, together with: 10 µM Mg2+ | reference: high Mg2+ state, higher = stronger signaling | fold induction | 1.18 |

Some of these lines once more (series 2):
| Oligonucleotide | E-score |
| --- | --- |
| AGGTCCAG | -0.121 |
| ACCTCTGG | -0.278 |
| ACGTTACC | 0.056 |
| ACAAGTAG | -0.258 |
| AGGAAAGG | -0.192 |
| CGTACCAG | -0.0841 |
